{"data": "Published values from different studies", "organism": "SARS-CoV-2", "note": "Lines come from different studies, so protocols differ. Values joined by “and” are separate records of one study, mostly repeats; a detail may differ."}
{"SMILES": "C#CCC(C)OP(=O)(O)Oc1c2c(c(OP(=O)(O)OC(C)CC#C)c3c1C1CC3c3cc4c(cc31)C1CC4c3ccccc31)C1CC2c2cc3c(cc21)C1CC3c2ccccc21 (stereo not shown)", "test": "viral replication", "system": "Caco-2", "quantity": "IC50", "value": "97.4 µM"}
{"SMILES": "Cc1ccc(N2CCN(C)CC2)cc1C(=O)NC1(c2cc(-c3cnn(C)c3)nc3ccccc23)CC1", "test": "viral replication", "system": "recombinant Y268H mutant", "scale": "baseline: wild type", "quantity": "EC50 fold change", "value": "6 to 13 fold"}
{"SMILES": "COC(=O)CC[C@@H](C)C1CCC2C3C(CC[C@@]21C)[C@@]1(C)CC[C@@H](n2cc(CO[C@H]4O[C@@H]5O[C@@]6(C)CCC7[C@H](C)CC[C@@H]([C@H]4C)[C@]75OO6)nn2)CC1C[C@@H]3O (stereo partly shown)", "system": "Calu-3", "setting": "20 µM, post-infection treatment", "scale": "baseline: untreated", "quantity": "viral load reduction", "value": "4.04 log10"}
{"SMILES": "CC(C)CC(C(=O)N1CC2(CC1C#N)C(=O)Nc1ccccc12)N(C)C(=O)c1cc2c(F)cc(F)c(F)c2[nH]1 (stereo not shown)", "test": "viral replication, infectious virus", "system": "Vero E6", "setting": "1 µM", "quantity": "inhibition", "value": "97%"}
{"SMILES": "CCCC/C=C/C(=O)N[C@@H](Cc1csc2ccccc12)C(=O)N[C@H]1COC(=O)[C@@H]2C[C@@H](C)CN2C(=O)[C@H](C)NC(=O)[C@@H]2CCCCN2C(=O)[C@@H]2CCCN2C1=O", "setting": "concentration not given", "scale": "baseline: DMSO", "quantity": "viral RNA release reduction", "value": "100 fold"}
{"SMILES": "Cc1oc2nc1C(=O)N[C@](C)(C(=O)O)c1nc(c(C)o1)C(=O)N[C@](C)(C(=O)O)c1nc(c(C)o1)C(=O)N[C@]2(C)C(=O)O", "test": "viral adsorption", "system": "Vero E6, NRC-03-nhCoV", "setting": "2.5 µM", "quantity": "inhibition", "value": "0%"}
{"SMILES": "CC(C)(C)NC(=O)[C@@H](c1cccnc1)N(C(=O)c1ccco1)c1ccc(C(C)(C)C)cc1", "system": "Vero C1008", "setting": "10 µM", "scale": "baseline: positive control", "quantity": "viral titre log reduction", "value": "0.266 log10"}
{"SMILES": "Cc1ccc(N2CC(N3CCC(C)(O)CC3)C2)cc1C(=O)NC1(c2ccc3c4c(cccc24)C(=O)N3C)CC1", "test": "viral replication", "system": "Vero C1008, Omicron BA.5", "setting": "0.01715 µM", "quantity": "inhibition", "value": "0%"}
{"SMILES": "CCC1OC(C2(C)CC(C)C(O)(C3(C)CCC(C(O)C4(O)OC(CC5(O)OC(C(C)C(O)CC6CCC(C)C(C(C)C(=O)O)O6)CCC5C)C(C)CC4C)O3)O2)CCC1(C)O (stereo not shown)", "system": "Vero E6-hTMPRSS2", "scale": "baseline: CC50 over EC50", "quantity": "selectivity index", "value": "> 500 fold and 586 fold"}
{"SMILES": "CC[C@](COC(=O)c1cc(OC)c(OC)c(OC)c1)(c1ccccc1)N(C)C", "system": "Vero", "setting": "83 µM", "quantity": "plaque reduction", "value": "77.3%"}
{"SMILES": "Oc1ccc(CCCCCCCCC(O)c2c(O)cccc2O)cc1O (stereo not shown)", "system": "Vero E6/TMPRSS2, WK-521 ancestral", "scale": "baseline: CC50 over EC50", "quantity": "selectivity index", "value": "> 7.4"}
{"SMILES": "Cc1ccc(N2CC3CC(C2)N3)cc1C(=O)NC1(c2ccc3c4c(cccc24)C(=O)N3C)CC1", "test": "viral replication", "system": "Vero C1008, Omicron BA.5", "setting": "0.1543 µM", "quantity": "inhibition", "value": "25% and 10%"}
{"SMILES": "C[C@@H]1O[C@@H](n2c3ccccc3c3c4c(c5c6ccccc6[nH]c5c32)CNC4=O)C[C@@H](N)[C@H]1O", "test": "viral replication, refers to: nucleocapsid protein", "system": "Calu-3, Omicron BA.1", "quantity": "EC50", "value": "1.7 µM"}
{"SMILES": "Cc1ccc(N2CC(N3CCC(C)(O)CC3)C2)cc1C(=O)NC1(c2ccc3c4c(cccc24)CC3)CC1", "test": "viral replication", "system": "Vero C1008, wild type", "setting": "12.5 µM", "quantity": "inhibition", "value": "100%"}
{"SMILES": "Cc1oc2nc1C(=O)N[C@](C)(C(=O)OC(C)C)c1nc(c(C)o1)C(=O)N[C@](C)(C(=O)OC(C)C)c1nc(c(C)o1)C(=O)N[C@]2(C)C(=O)OC(C)C", "test": "viral replication", "system": "Vero E6, NRC-03-nhCoV", "setting": "5 µM", "quantity": "inhibition", "value": "6%"}
{"SMILES": "Cc1ccc(N2CCN(C)CC2)cc1C(=O)NC1(c2ccc3c4c(cccc24)CC3)CC1", "test": "viral replication", "system": "Vero C1008, XBB.1", "setting": "0.05144 µM", "quantity": "inhibition", "value": "0%"}
{"SMILES": "Clc1cc(Cl)cc(CCCN2CCCC3=CC4CC(CN5CCCCC45)C32)c1 (stereo not shown)", "test": "viral replication", "setting": "concentration not given", "quantity": "antiviral activity", "value": "inactive"}
{"SMILES": "C(=N\\Cc1cc(C/N=C/c2cccs2)cc(-c2cc(C/N=C/c3cccs3)cc(C/N=C/c3cccs3)c2)c1)/c1cccs1", "system": "mouse, brain", "setting": "dose not given", "quantity": "viral load", "value": "decreased"}
{"SMILES": "C#CCCCCOP(=O)(O)Oc1c2c(c(OP(=O)(O)OCCCCC#C)c3c1C1CC3c3cc4c(cc31)C1CC4c3ccccc31)C1CC2c2cc3c(cc21)C1CC3c2ccccc21", "test": "spike pseudoparticle entry", "system": "Caco-2", "quantity": "IC50", "value": "16.2 µM"}
{"SMILES": "Cc1oc2nc1C(=O)N[C@](C)(C(=O)NCCc1ccccc1)c1nc(c(C)o1)C(=O)N[C@](C)(C(=O)NCCc1ccccc1)c1nc(c(C)o1)C(=O)N[C@]2(C)C(=O)NCCc1ccccc1", "test": "viral adsorption", "system": "Vero E6, NRC-03-nhCoV", "setting": "5 µM", "quantity": "inhibition", "value": "0%"}
{"SMILES": "CCC(C)OP(=O)(O)Oc1c2c(c(OP(=O)(O)OC(C)CC)c3c1C1CC3c3cc4c(cc31)C1CC4c3ccccc31)C1CC2c2cc3c(cc21)C1CC3c2ccccc21 (stereo not shown)", "test": "spike pseudoparticle entry", "system": "Caco-2", "quantity": "IC50", "value": "16.1 µM"}
{"SMILES": "Oc1ccc(Br)cc1-c1nc2cc(C(F)(F)F)ccc2s1", "setting": "concentration not given", "scale": "baseline: DMSO", "quantity": "viral RNA release reduction", "value": "1000 fold"}
{"note": "A few entries again:"}
{"SMILES": "Cc1ccc(N2CC(N3CCC(C)(O)CC3)C2)cc1C(=O)NC1(c2ccc3c4c(cccc24)C(=O)N3C)CC1", "test": "viral replication", "system": "Vero C1008, Omicron BA.5", "setting": "0.01715 µM", "quantity": "inhibition", "value": "0%"}
{"SMILES": "CCC1OC(C2(C)CC(C)C(O)(C3(C)CCC(C(O)C4(O)OC(CC5(O)OC(C(C)C(O)CC6CCC(C)C(C(C)C(=O)O)O6)CCC5C)C(C)CC4C)O3)O2)CCC1(C)O (stereo not shown)", "system": "Vero E6-hTMPRSS2", "scale": "baseline: CC50 over EC50", "quantity": "selectivity index", "value": "> 500 fold and 586 fold"}
